Measurements pooled from the literature.
Each numbered part is a random draw from the data of one study; scales do not carry over between parts.

Sample 1 — method: RNA Bind-n-Seq; form: RNA; sample: in vitro; tested at: not given; baseline: input RNA pool; reading: higher = stronger binding; endpoint: bound/input enrichment
Target: RING finger protein unkempt homolog, zinc fingers 1-6, GST-SBP tag (UNK, Homo sapiens, UniProt Q9C0B0, residues 30-357)
Setting: RNA with constant flanks, human and mouse sites, ends assumed
Residues (chain): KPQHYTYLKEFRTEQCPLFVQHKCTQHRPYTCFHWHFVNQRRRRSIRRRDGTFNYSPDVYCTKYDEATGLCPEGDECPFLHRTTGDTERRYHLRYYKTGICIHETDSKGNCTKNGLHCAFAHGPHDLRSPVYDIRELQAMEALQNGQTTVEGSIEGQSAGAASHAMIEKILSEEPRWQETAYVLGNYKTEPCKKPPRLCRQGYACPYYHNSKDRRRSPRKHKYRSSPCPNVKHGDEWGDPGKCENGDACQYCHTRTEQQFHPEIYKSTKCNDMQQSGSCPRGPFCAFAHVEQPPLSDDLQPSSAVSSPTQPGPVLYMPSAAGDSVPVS
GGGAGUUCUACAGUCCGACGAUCCAGGAGCGCGCAGGCCAAGGGCACGACAUUUUAUAAGUAUGUCAUGGAAAGUCGUGAUCCGAGUACAAAUGUUAUUCUAUUGGAGGACACUGCAGCUGUCUUAGGAGUGAUAAUAGCGGCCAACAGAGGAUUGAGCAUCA: 3.17 ratio
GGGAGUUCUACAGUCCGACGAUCAGUCCUCAACGUGUUCUAGCUUGUGAUCCUUCAAAGAUGGGUUAUGUGUUAAUGAUAGGUACUAGAAAUGUUUACUUCUCUCUUUCCACUGAUCAGAGAAACAGGCAUUAAAGACAGAAUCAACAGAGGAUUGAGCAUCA: 0.338 ratio
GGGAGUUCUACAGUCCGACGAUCAUGACCCUUGGACAGCAGGAUGUUUCCAAAGUCCUGCUAGGCCCUCUCUCUCCCUACACGAUAGAAUUUUUGCGGCAUUUGAAGAGCUUUUUCCAGAUUAUGUUUAAAAUUGAAACCAAGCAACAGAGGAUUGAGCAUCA: 3.94 ratio
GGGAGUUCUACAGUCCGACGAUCUUUCUUACCGUGUAUAUCAAGAGCAUCUUCCUUAAUCAGGUCUUGGCUGAGAUCAACAAGGAGAUUGAAGGCGUCACCAAAACCUCAGACCCCUUGAAGAUCCUGGCUAAUGCAGACACCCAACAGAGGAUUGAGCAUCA: 0.113 ratio
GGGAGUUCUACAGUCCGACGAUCGAAACAUUUAAAUUUAAAGAAGCUGUUGUUCUAGGAAGUACGGACUUUCUAGAAGAUGAUAUAGAGAAAAUUGUAGAAGAACUGGGGAAAGAGUAUAAGGGCAACGCCUACCAUCUGAUGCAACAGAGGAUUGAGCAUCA: 1.58 ratio
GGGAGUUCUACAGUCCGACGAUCUUCUUUGGUCCACUUUUUGAUGGUGCUAUUGUGAAUGGAAAAGUUCUGCCCAUUAUGGUUCGAUCCACAGCAAUAAAUGCUAGCCGUGCUCUGAAAUCACUGAUUCCAUUGUAUCAAAAUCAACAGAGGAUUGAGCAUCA: 0.13 ratio
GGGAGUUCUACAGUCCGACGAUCAACAAUCUUCAGAAGUAUAUAGAGAUAUAUGUCCAGAAGGUAAAUCCAAGUCGACUUCCUGUGGUUAUUGGAGGAUUGCUGGAUGUUGACUGCUCUGAAGAUGUCAUUAAAAAUUUGAUUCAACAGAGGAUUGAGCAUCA: 0.179 ratio
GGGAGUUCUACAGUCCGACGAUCGAACCGAAAGGCCAAAUUCCCUCCUCCCUUCUACUGCUUCUACCAACUGGAAGCACAGAAAACUAGAAUUUCAUUUAUUUUGUUUUUAAAAUAUAUAUGUUGAUUUCUUGUAACAUCCAACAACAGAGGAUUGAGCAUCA: 7.37 ratio
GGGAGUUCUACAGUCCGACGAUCACGGAGGCGGGUUCUACAGAGACGUAGGCUGUCAGGGAGUGUUUAUUUCGCGUCCGCUUCUGUUUCUCCGCGCCCCUGUGCUGCCCCGACUCACAUACUCGUCCAGAACCGGCCUCAGCCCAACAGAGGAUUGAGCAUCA: 0.0909 ratio
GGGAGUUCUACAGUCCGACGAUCCUGCCUACCUCAGAGCAUAAAUGCAUACAUUCUAGAGAAGAUGAAGACUUAAUUGAAAAUUUAGCCCAAGAUGAAACAUCUAGGCUGGACCUUGGAUUUGAGGAGUGGGAUGUAGCUGGCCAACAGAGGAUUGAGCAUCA: 0.306 ratio
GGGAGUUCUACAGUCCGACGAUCCCUGGGUGACAGAGUGAGACCCUGUCUCUAAAAAAAAAAAAAAGAAAAUAAAGAAAAAAGAAUGUCAGCAUGUCAGCGUUCCUCCAAGGAGUGGCUUUGGGUCAAGAAGACAGGCUGGCUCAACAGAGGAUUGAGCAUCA: 0.497 ratio

Sample 2 — method: RNA Bind-n-Seq; form: RNA; sample: in vitro; tested at: 200 nM; setting: whole 134-nt RNA, ends assumed; together with: 150 mM KCl; baseline: input library; reading: higher = stronger binding; endpoint: log2 enrichment
Target: Ras GTPase-activating protein-binding protein 1, full length (G3BP1, Homo sapiens, UniProt Q13283)
Sequence of UniProt Q13283 (whole entry, looked up): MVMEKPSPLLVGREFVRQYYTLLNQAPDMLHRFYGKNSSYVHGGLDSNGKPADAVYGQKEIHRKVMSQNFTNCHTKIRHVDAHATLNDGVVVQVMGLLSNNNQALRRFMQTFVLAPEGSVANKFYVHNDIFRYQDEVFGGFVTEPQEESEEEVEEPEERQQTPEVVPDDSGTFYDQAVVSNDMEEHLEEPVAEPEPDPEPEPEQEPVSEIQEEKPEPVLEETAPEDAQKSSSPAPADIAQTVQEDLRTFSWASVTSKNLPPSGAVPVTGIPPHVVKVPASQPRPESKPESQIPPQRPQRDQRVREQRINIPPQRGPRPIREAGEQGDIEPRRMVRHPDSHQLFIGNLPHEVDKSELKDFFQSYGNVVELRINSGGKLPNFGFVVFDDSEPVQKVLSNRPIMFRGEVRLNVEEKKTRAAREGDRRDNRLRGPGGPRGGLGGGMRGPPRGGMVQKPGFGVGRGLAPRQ
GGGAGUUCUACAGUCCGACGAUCACCAUGCAGGUGGGCAUCUUUGGGAAGUGGGGCAAGGGGAGGAUAGGGAGGGGGGUAACACUUUGGGAACAGGUGGUCCCAGGUCGUUUCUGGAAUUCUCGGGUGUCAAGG: 1.12
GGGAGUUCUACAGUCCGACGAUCGUCCUGUGCUACACAUCGUAUGUACCGAAUCGGGCCCCCGGGCCCCCGGGGCCCCCGGAAAGUAUUAUGUUACGCCGUUCGGAUCUGCACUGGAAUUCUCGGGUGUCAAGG: -0.953
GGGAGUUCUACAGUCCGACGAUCUCCUGUGCUACACAUCGUAUGUACCGAAUCGGGCCCCCCGGGGCCCCCCGGGCCCCCCGGAAAGUAUUAUGUUACGCCGUUCGGAUCUGCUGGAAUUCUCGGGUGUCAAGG: -0.142
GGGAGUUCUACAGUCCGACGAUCUGGAAGGUGGAUUUUGUUUAUUUUUUUAGCUCAUUUCCAGGGGUGGGAAUUUUUUUUUAAUAUGUGUCAUGAAUAAAGUUGUUUUUGAAAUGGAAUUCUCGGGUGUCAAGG: -0.248
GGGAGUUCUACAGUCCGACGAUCCAAGUCCUGUGCUACACAUCGUAUGUACCGAAUCGGGAAAGGGUGGGAAAAAGGGAAAGUAUUAUGUUACGCCGUUCGGAUCUGCACUUCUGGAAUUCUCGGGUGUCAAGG: 0.819
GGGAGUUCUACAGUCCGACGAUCCCUGUGCUACACAUCGUAUGUACCGAAUCAAAUUUUUUUAAACCCCCAAAUUUUUUUAAAAAAGUAUUAUGUUACGCCGUUCGGAUCUGCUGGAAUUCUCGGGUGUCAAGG: -0.125
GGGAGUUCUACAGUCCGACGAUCCUCAAGUCCUGUGCUACACAUCGUAUGUACCGAAUCGGGGAAGGAAGGGAAGGGAAAGUAUUAUGUUACGCCGUUCGGAUCUGCACUUCCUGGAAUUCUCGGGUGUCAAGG: -0.0325
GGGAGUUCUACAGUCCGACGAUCCUCAAGUCCUGUGCUACACAUCGUAUGUACCGAAUCGGUGGUUUGGUUUUUGGAAAGUAUUAUGUUACGCCGUUCGGAUCUGCACUUCCAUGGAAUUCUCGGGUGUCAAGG: -0.344
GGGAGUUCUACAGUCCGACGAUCUCCUCAAGUCCUGUGCUACACAUCGUAUGUACCGAAUCGGAAAGGUGGAGGAAAGUAUUAUGUUACGCCGUUCGGAUCUGCACUUCCAGCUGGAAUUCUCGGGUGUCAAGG: -0.775
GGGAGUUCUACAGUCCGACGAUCUUGCAGGAGCCGCCGCGCCUCGGCCUAGCAUGUCGGAAGCGGGCGAGGAGCAGCCCAUGGAGACGACGGGCGCCACCGAGAACGGACAUGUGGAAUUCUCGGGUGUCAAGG: -0.261

Sample 3 — method: RNA Bind-n-Seq; form: RNA; sample: in vitro; tested at: 365 nM; baseline: no-protein control; reading: higher = stronger binding; endpoint: RBNS enrichment (R)
Target: RNA binding protein fox-1 homolog 2, RRM domain, GST-SBP tag (RBFOX2, Homo sapiens, UniProt O43251-10, residues 100-194)
Setting: natural RNA segment, single round, ends assumed
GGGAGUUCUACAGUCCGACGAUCCUAUGUGACUUGCGCUUAAUCCAAUAUUUUGCCUUUUUUCUAUAUCAAAAAACCUUUACAGUUAGCAGGGAUGUUCCUUACCAAGGAUUUUUAGCCCCAAAUCUCUCAUAUGGAAUUCUCGGGUGCCAA: 0.912
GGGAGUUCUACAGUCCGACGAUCUGGAUCCAGGCUGUACAUUGAAUAAAAAGAUUCGAAAUGCACAGUUAGCACAGUAUAACUUCAUUUUAGGUGUUGGUGAAAAAGAGAAAAUCAGUGGCACUGUUAAUAUCUGGAAUUCUCGGGUGCCAA: 0.767
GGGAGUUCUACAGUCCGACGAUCCCUCAAAAACAAAACAAAAAAAAUGUUUUUACGCAUUUUAUCAAAAUUAGCACAUCUGUGGCUGAGGAGAAAUCCACCUGAAAAUGUGGGAGACCUUGACAGAGUGGUCAUGGAAUUCUCGGGUGCCAA: 0.703
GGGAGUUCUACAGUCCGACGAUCGCAUUGAAUACUCCAUCCCCUUCCCGCCCAGUGAAUGGAAUGAGAAAAGCCUUCUUCCUUUGCUUCAGGCAGCUGUCCCCUUCUCUUCCUUGGUGAUCCUGAGUGGGUCAUGGAAUUCUCGGGUGCCAA: 0.465
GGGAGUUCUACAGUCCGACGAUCCAUCUGUGUAGUCCUCAUACUGUUUACUGAUAACCCACAAAUUCAUUUUCAUGGCAGACCUAAGCUCAGACCCUGCCUUGUCCUGGCAAGCAUAGGUUUUCCCAGACCACUGGAAUUCUCGGGUGCCAA: 0.469
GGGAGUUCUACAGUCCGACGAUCUUCACCCAACAACUUCCUCUGUCCUGCUGCACGGUCCAGAGUCUGGGACCGACUUUGUUUCUUUGUUAUUUAUGAUCUUGUUUAAAGAAAAUAAAUAUCUCCCAACCUUUUGGAAUUCUCGGGUGCCAA: 0.842
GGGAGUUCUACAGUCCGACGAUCAUUACUUGAAGCACUACAGGAGGAAUGCACCACGGCAGCUCUCCGCCAAUUUCUCUCAGAUUUCCACAGAGACUGUUUGAAUGUUUUCAAAACCAAGUAUCACACUUUAAUGGAAUUCUCGGGUGCCAA: 0.366
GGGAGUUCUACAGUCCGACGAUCCACCCAAGGCUUCUAGAAGGAGCUUCCUGCAAUGGAAGGAAGGAGAAGCUCUGAAGCCCAUGUAUGGCAUGGAUUGUGGAAGACUGGGCAACAUAUUUAAGAUUUCCAGCUGGAAUUCUCGGGUGCCAA: 0.658
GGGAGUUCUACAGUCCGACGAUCUCUAUGAAAGAGUUCACUUCAUAGAGAAUAAUACUUGAGCAAAUGUAUCCAAGAAAGCAAGCAAAUGAAAAGAAACCUAUUUAUGGAAUAAACUCCAGAUCUGAAAUUCAUGGAAUUCUCGGGUGCCAA: 0.525
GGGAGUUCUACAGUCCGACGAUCAGGUUCAUGUAAGAGUAUCGUGGUGUAAAUAUAAUGGUUUCACAGCUGUUUGAAUUUUUCUUUUCCUGUGCCAGAUAUAGAAUGCAGUCAACCCUUUUUCAGUAACUUAUUGGAAUUCUCGGGUGCCAA: 0.784
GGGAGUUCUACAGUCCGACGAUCUGGCCAGAGGCAUUUUUUAAAUCAGGCCCAAUAUCAGUAUUCUUUUUGUGUGUGCCAAUUUUGUUAUCACAUCCCUAUGAAGUUGAAAAAUAAAGUUAAUUUUGACCAAAUGGAAUUCUCGGGUGCCAA: 0.467
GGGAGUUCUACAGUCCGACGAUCAGGAAAGAAGGGGUUGCUUUAUGGAUAAGCCUGUAGAAUCGGCUGCUUCCUAUGACUCCCUGGCUGCACAAGAAGAAAUUGUCUGUCUUCCAUAUAUGCUUCUAAGUAUCUGGAAUUCUCGGGUGCCAA: 0.857

Other studies, line by line
PhoQ, residues 284 288 289 292 302 303 ALSMDL  fold induction (PhoP, residues 12 14 15 18 19 GHCSL (Escherichia coli, UniProt P23836); Sort-seq, refers to: YFP reporter; E. coli; PhoQ-PhoP variant library, together with: 10 µM Mg2+; baseline: high Mg2+ state, higher = stronger signaling): 17.9

A few entries again (sample 1):
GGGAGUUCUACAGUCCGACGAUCAGUCCUCAACGUGUUCUAGCUUGUGAUCCUUCAAAGAUGGGUUAUGUGUUAAUGAUAGGUACUAGAAAUGUUUACUUCUCUCUUUCCACUGAUCAGAGAAACAGGCAUUAAAGACAGAAUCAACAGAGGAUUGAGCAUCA: 0.338 ratio
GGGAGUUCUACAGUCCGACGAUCAACAAUCUUCAGAAGUAUAUAGAGAUAUAUGUCCAGAAGGUAAAUCCAAGUCGACUUCCUGUGGUUAUUGGAGGAUUGCUGGAUGUUGACUGCUCUGAAGAUGUCAUUAAAAAUUUGAUUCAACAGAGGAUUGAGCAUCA: 0.179 ratio
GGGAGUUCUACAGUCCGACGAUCUUUCUUACCGUGUAUAUCAAGAGCAUCUUCCUUAAUCAGGUCUUGGCUGAGAUCAACAAGGAGAUUGAAGGCGUCACCAAAACCUCAGACCCCUUGAAGAUCCUGGCUAAUGCAGACACCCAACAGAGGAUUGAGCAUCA: 0.113 ratio
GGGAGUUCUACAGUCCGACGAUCCAGGAGCGCGCAGGCCAAGGGCACGACAUUUUAUAAGUAUGUCAUGGAAAGUCGUGAUCCGAGUACAAAUGUUAUUCUAUUGGAGGACACUGCAGCUGUCUUAGGAGUGAUAAUAGCGGCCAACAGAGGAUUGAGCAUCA: 3.17 ratio
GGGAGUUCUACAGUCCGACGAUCGAAACAUUUAAAUUUAAAGAAGCUGUUGUUCUAGGAAGUACGGACUUUCUAGAAGAUGAUAUAGAGAAAAUUGUAGAAGAACUGGGGAAAGAGUAUAAGGGCAACGCCUACCAUCUGAUGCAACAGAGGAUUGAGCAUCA: 1.58 ratio
